Results gathered from unrelated publications.
Protocols differ between the studies behind these lines.
Target: Cyclin-dependent kinase 19 (CDK19, Homo sapiens, UniProt Q9BWU1)
UniProt Q9BWU1, sequence (whole entry, looked up): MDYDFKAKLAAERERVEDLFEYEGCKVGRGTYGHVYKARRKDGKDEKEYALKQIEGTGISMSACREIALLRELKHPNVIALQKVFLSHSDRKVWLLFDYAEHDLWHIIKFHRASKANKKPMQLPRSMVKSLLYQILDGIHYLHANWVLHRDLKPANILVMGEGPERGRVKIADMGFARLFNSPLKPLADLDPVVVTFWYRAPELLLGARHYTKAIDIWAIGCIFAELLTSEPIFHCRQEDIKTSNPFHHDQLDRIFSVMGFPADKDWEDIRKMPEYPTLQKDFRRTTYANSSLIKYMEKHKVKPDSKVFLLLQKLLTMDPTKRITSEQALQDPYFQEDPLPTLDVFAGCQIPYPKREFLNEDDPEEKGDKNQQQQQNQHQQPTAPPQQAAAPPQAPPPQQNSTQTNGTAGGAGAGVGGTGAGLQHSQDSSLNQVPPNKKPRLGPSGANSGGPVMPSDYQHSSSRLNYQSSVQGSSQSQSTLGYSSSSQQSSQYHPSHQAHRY

| SMILES | assay | setting | scale | remaining binding [%] |
| --- | --- | --- | --- | --- |
| COc1cnc(Nc2cccc(S(N)(=O)=O)c2)nc1N1CCN(c2ccccc2)C(=O)C1 | KINOMEscan | 1 µM |  | 98 |
| O=C(c1ccc(Nc2ncc(Cl)c(-c3cc4ccccc4s3)n2)cc1)N1CCC(N2CCCC2)CC1 | binding, KINOMEscan competition binding | 1 µM | reference: DMSO control | 100 |
| C=CC(=O)N1CCC(COCC(=O)N2CCN(c3nc(-c4cnc(N)nc4C(F)F)nc(N4CCOC[C@@H]4C)n3)CC2)CC1 | KINOMEscan | 1 µM | reference: DMSO control | 99 |
| Cc1cc([C@@H](C)Nc2ccccc2C(=O)O)c2nc(N3CCC(F)(F)CC3)c(C#N)c(=O)n2c1 | KINOMEscan | 1 µM | reference: control | 94 |
| O=C(Nc1c[nH]nc1C(=O)NC1CCNCC1)c1cc(F)cc(F)c1 | scanMAX | 1 µM | reference: untreated | 100 |
| C[C@@H](c1ccc(-n2cnc3c(N)ncnc32)cc1)N1CCc2nn(C)c(Cc3ccccc3)c2C1=O | KINOMEscan | 0.1 µM | reference: DMSO control | 35 |
| Cc1cc(S(=O)(=O)N[C@H]2CC[C@H](CN3CCN(c4ccc(C5CCC(=O)NC5=O)cc4F)CC3)CC2)ccc1Nc1ncc(C(F)(F)F)c(N2CCC[C@](C)(O)C2)n1 (stereo partly drawn) | KINOMEscan | 1 µM |  | 94 |
| C1=C/COCc2cc(ccc2OCCN2CCCC2)Nc2nccc(n2)-c2cccc(c2)COC/1 |  | 0.1 µM | reference: DMSO control | 97 |
| CNC(=O)[C@@H]1CC[C@@H](n2c(-c3ccc4cnccc4c3)nc3ccc(C(=O)NCc4cccc(C(N)=O)c4)cc32)C1 | KINOMEscan | 1 µM |  | 91 |
| c1cncc(-c2cccc(Nc3nccc(NC4CCCCC4)n3)c2)c1 | KINOMEscan | 10 µM |  | 58 |
| C[C@]1(O)CCCN(c2nc(Nc3ccc(S(=O)(=O)N[C@H]4CC[C@H](CN5CCN(c6ccc(C7CCC(=O)NC7=O)cc6F)CC5)CC4)cc3Cl)ncc2C(F)(F)F)C1 (stereo partly drawn) | KINOMEscan | 1 µM |  | 80 |
| O=C(c1ccc(Nc2ncc(Cl)c(-c3ccc(Cl)s3)n2)cc1)N1CCC(N2CCCC2)CC1 | binding, KINOMEscan competition binding | 1 µM | reference: DMSO control | 100 |
| CC(C)(C)c1ccc(-c2nc(CBr)nn2-c2cccc(O)c2)cc1 | KINOMEscan | 10 µM |  | 56 |
| O=C(c1ccc(Nc2nccc(-c3cc4ccccc4s3)n2)cc1)N1CCC(N2CCCC2)CC1 | binding, KINOMEscan competition binding | 1 µM | reference: DMSO control | 100 |
| COc1ncc2cc3ccccc3nc2c1C#N | KINOMEscan | 5 µM | reference: DMSO | 91 |

Some of these lines once more:
| SMILES | assay | setting | scale | remaining binding [%] |
| --- | --- | --- | --- | --- |
| O=C(c1ccc(Nc2nccc(-c3cc4ccccc4s3)n2)cc1)N1CCC(N2CCCC2)CC1 | binding, KINOMEscan competition binding | 1 µM | reference: DMSO control | 100 |
